Published values from different studies.
Numbered parts are unrelated; each lists some results of a single study. Substitutions count along the parent as printed.
Chain of UniProt O15294 (whole entry, looked up): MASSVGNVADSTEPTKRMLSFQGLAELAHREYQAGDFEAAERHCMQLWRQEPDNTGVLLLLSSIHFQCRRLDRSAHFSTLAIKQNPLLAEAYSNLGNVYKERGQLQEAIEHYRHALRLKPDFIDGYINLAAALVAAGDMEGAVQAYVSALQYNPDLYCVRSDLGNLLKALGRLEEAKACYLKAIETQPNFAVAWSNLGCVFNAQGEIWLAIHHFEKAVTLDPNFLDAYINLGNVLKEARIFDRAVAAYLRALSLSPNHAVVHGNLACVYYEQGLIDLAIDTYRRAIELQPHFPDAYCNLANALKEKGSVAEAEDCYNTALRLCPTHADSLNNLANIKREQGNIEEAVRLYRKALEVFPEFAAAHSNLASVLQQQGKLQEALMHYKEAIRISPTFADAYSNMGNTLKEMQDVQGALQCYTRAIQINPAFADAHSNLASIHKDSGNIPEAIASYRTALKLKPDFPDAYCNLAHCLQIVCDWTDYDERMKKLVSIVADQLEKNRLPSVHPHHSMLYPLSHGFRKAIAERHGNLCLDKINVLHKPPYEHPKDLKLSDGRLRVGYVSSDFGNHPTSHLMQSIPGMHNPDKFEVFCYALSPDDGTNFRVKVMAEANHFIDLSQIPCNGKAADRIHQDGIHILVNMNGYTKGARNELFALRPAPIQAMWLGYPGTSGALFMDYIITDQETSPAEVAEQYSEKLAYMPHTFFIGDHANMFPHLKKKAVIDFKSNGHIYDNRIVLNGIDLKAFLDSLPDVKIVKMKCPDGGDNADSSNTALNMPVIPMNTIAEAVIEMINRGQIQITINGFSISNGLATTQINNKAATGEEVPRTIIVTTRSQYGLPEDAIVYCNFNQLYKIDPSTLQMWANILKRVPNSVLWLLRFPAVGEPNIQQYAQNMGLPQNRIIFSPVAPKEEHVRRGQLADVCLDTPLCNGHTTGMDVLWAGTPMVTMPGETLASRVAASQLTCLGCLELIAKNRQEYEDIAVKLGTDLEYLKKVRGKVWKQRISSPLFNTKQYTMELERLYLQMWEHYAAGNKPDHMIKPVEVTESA

Study 1 — target: ATF7, bZIP domain (human); method: DHFR protein complementation; sample: yeast; baseline: wild-type JUN-FOS pair; direction: higher = stronger binding
Setting: single substitutions, most at no-binding floor
Parent: JUN, bZIP domain (human); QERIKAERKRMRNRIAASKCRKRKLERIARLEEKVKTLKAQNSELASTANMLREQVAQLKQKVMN; partner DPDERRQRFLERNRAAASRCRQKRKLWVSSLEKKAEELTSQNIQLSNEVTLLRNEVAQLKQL
| Change | binding fitness [natural log] |
| --- | --- |
| L52Y | -1.41 |
| T48Y | -0.994 |
| E32A | -0.711 |
| K34T | -0.986 |
| T37L | -0.84 |
| K39N | -1.03 |
| K34P | -1.46 |
| T48P | -1.5 |

Study 2 — method: aptamer microarray, sandwich; molecule type: DNA with 2'F-ANA; sample: in vitro; concentration: 200 nM; with: Cy3 exosite-II aptamer, 400 nM; direction: higher = stronger binding; oligonucleotide: GGTTGGTGTGGTTGG
Target: Prothrombin, mature alpha-thrombin (F2, Homo sapiens, UniProt P00734)
Setting: whole 15-mer aptamer, many near background
| Modification | mean fluorescence intensity |
| --- | --- |
| 2'F-ANA at 13 14 | 247 a.u. |
| 2'F-ANA at 1 3 4 6 7 8 9 10 11 12 13 15 | 81.6 a.u. |
| 2'F-ANA at 1 3 4 6 7 9 10 11 12 14 15 | 55.8 a.u. |
| 2'F-ANA at 2 4 6 7 8 9 10 14 | 63.7 a.u. |
| 2'F-ANA at 2 4 6 10 12 13 15 | 94.1 a.u. |
| 2'F-ANA at 3 4 5 7 9 10 14 15 | 48.5 a.u. |
| 2'F-ANA at 5 7 8 9 15 | 77.4 a.u. |
| 2'F-ANA at 2 3 4 5 6 8 9 11 13 14 | 50.9 a.u. |

Further values, each from its own experiment
P1: PafA, mature enzyme, eGFP fusion (Elizabethkingia meningoseptica, UniProt Q9KJX5); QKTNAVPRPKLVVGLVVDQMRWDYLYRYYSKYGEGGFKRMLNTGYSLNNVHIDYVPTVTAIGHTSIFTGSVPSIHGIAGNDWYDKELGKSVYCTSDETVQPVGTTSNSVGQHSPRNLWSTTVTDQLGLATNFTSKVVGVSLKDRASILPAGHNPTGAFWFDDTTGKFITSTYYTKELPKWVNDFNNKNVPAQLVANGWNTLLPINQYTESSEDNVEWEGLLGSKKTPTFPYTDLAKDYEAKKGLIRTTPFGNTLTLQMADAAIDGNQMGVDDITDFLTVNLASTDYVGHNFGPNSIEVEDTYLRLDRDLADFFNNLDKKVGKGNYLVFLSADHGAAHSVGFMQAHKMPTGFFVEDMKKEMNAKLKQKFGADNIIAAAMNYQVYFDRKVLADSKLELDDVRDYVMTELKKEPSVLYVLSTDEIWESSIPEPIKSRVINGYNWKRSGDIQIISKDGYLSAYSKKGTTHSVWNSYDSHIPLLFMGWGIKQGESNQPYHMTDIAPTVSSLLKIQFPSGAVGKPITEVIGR
| Molecule | target | assay | test system | setting | scale | quantity | value |
| --- | --- | --- | --- | --- | --- | --- | --- |
| HQIEWHHTSSNYFH | UDP-N-acetylglucosamine--peptide N-acetylglucosaminyltransferase 110 kDa subunit (OGT, Homo sapiens, UniProt O15294) | binding, phage display NGS | peptide | concentration not given | baseline: input library | enrichment fold change | 4.02 |
| P1 R307V | vanadate, free oxyanion | microfluidic competitive inhibition | in vitro, cell-free expressed | not given, derived from inhibition constants, unchanged parent 676 nM | lower = stronger binding | oxyanion analog dissociation constant | 1.06 µM |

For quick reference, copied from above (study 1):
| Change | binding fitness [natural log] |
| --- | --- |
| K34P | -1.46 |
